Assay results of several laboratories.
Protocols differ between the studies behind these lines. Several values in a cell are separate wells, animals, samples, runs or records. ± gives the spread as reported.

CCN(CC)c1ccc(/C=N/c2ccccc2F)c(O)c1
IC50 (yeast alpha-glucosidase; enzyme activity; with: pNPG): 169 µM

[Cl-].[Cl-].[Pt+2].[Ru+2].c1ccc(-c2nccnc2-c2ccccn2)nc1.c1cnc2c(c1)ccc1cccnc12.c1cnc2c(c1)ccc1cccnc12
nicked circular DNA (pcDNA supercoiled plasmid; agarose gel electrophoresis; 50 µM, photoinduced cleavage, with: 0.1 µM pcDNA): 20.6%

NCCCOc1cc(NC(=O)c2cc(OCCN)cc(C(=O)Nc3cc(OCCCN)c4ccccc4n3)n2)nc2ccccc12
ΔTm (c-myc G-quadruplex DNA; FRET melting; 1 µM, pH 7.4, with: 60 mM potassium): 15.8 ± 0.8 K

[Cl-].[Cl-].[Pt+2].[Ru+2].c1ccc(-c2nc3cc4ccccc4cc3nc2-c2ccccn2)nc1.c1cnc2c(c1)ccc1cccnc12.c1cnc2c(c1)ccc1cccnc12
supercoiled DNA (pcDNA supercoiled plasmid; agarose gel electrophoresis; 20 µM, photoinduced cleavage, with: 0.1 µM pcDNA): 87.4%

CCS(=O)(=O)c1nc(C2CC2)cc(C(F)(F)F)n1
cells with nuclear SREBP1 (importin beta-1; SREBP1 nuclear import, high content imaging; HeLa Kyoto; 0.02 µM, 3 h, with: glucose and MG132): 96.1% and 86.9% and 89.2% and 88.6%

c1coc(-c2n[nH]cc2-c2ccnc3ccccc23)c1
log2 fold change (KIN3 (Candida albicans); kinase binding, MIB/MS competition; Candida albicans lysate; 1 µM; baseline: DMSO): -0.22

NC1(C(=O)N[C@@H](CCO)c2ccc(Cl)cc2)CCN(c2nc[nH]c3nccc2-3)CC1
time to baseline return (Akt; inhibitor; mouse BT-474 xenograft; intraperitoneal, 30 mg/kg): ≤ 24 h

COc1cc(C(=O)Nc2cc(OC)c3ccccc3n2)nc(C(=O)Nc2cc(OC)c3ccccc3n2)c1
ΔTm (c-myc G-quadruplex DNA; FRET melting; 1 µM, pH 7.4, with: 60 mM potassium): 0.4 ± 0.2 K

Oc1ccccc1-c1n[nH]cc1-c1ccnc2ccccc12
log2 fold change (MPS1 (Candida albicans); kinase binding, MIB/MS competition; Candida albicans lysate; 1 µM; baseline: DMSO): -0.46

C=C(F)C(=O)N1CCN(c2nc(OC[C@@H]3CCCN3C)nc3c2CCN(c2cccc4cccc(Cl)c24)C3)C[C@@H]1CC#N
inhibition (HRAS wild type (human); SOS-mediated nucleotide exchange, inhibitor; concentration not given): inactive

C#Cc1cc(-c2cc(Nc3nc(N[C@@H](C)c4ccc(F)cn4)ncc3Cl)n[nH]2)ccc1C=O
inhibition (TPR-TRKA kinase fusion, human; kinase activity, inhibitor; 0.2 µM): 100%

COc1ccccc1-c1n[nH]c2nc(N[C@H]3CC[C@H](NS(=O)(=O)CCCOCCOCCNC(=O)OC(C)(C)C)CC3)ncc12
log2 SILAC ratio heavy/light (Leishmania donovani CRK3 (LINJ.36.0600); resin binding competition; promastigote lysate; 10 µM; baseline: DMSO): 3.31

Clc1ccc2nccc(NCCc3ccccc3)c2c1
IC50 (CDK8/CDK19; NF-κB reporter gene; 293-NFκB-Luc; 3 h, with: TNF-α 10 ng/mL): > 5 µM

[Cl-].[Cl-].[Pt+2].[Ru+2].c1ccc(-c2nc3ccccc3nc2-c2ccccn2)nc1.c1cnc2c(c1)ccc1cccnc12.c1cnc2c(c1)ccc1cccnc12
nicked circular DNA (pcDNA supercoiled plasmid; agarose gel electrophoresis; 50 µM, photoinduced cleavage, with: 0.1 µM pcDNA): 15.5%

CC(Nc1nc(N2CCCC2)nc2ccccc12)c1ccccc1 (stereo not drawn)
cells with nuclear SREBP1 (importin beta-1; SREBP1 nuclear import, high content imaging; HeLa Kyoto; 50 µM, 3 h, with: glucose and MG132): 75.2% and 92% and 79%

COc1cccc(CNC(=O)C#Cc2cn(Cc3ccc(C(=O)O)cc3)c(=O)[nH]c2=O)c1
remaining MMP-14 activity (MMP-14; inhibitor, colorimetric; 20 µM): 109 ± 28%

CC[S+]([O-])c1nc(-c2ccccc2)cc(C(F)(F)F)n1 (stereo not drawn)
cells with nuclear SREBP1 (importin beta-1; SREBP1 nuclear import, high content imaging; HeLa Kyoto; 1.58 µM, 3 h, with: glucose and MG132): 94.7% and 88.7% and 92.6% and 85.8%

Cn1cc(-c2ccc(-c3cncc(Cl)c3N3CCC4(CCNC4=O)CC3)cc2)cn1
log2 fold change (COLO 205; gene expression, microarray, measured: CDC45 mRNA; concentration not given, 6 h; baseline: untreated cells): -2.38

A few entries again:
C=C(F)C(=O)N1CCN(c2nc(OC[C@@H]3CCCN3C)nc3c2CCN(c2cccc4cccc(Cl)c24)C3)C[C@@H]1CC#N
inhibition (HRAS wild type (human); SOS-mediated nucleotide exchange, inhibitor; concentration not given): inactive

C#Cc1cc(-c2cc(Nc3nc(N[C@@H](C)c4ccc(F)cn4)ncc3Cl)n[nH]2)ccc1C=O
inhibition (TPR-TRKA kinase fusion, human; kinase activity, inhibitor; 0.2 µM): 100%
